Assay results pooled from the literature.
Protocols differ between the studies behind these lines. Numbers after ± are the reported error.

The tissue uptake of `N=C(N)NCCC[C@@H]1NC(=O)[C@H](CCCCNC(=O)CC[C@H](NC(=O)CC[C@H](NC(=O)CN2CCN(CC(=O)O)CCN(CC(=O)O)CCN(CC(=O)O)CC2)C(=O)N[C@@H](CCC(=O)NCCCC[C@@H]2NC(=O)[C@@H](Cc3ccccc3)NC(=O)[C@H](CC(=O)O)NC(=O)CNC(=O)[C@H](CCCNC(=N)N)NC2=O)C(=O)NCCCC[C@@H]2NC(=O)[C@@H](Cc3ccccc3)NC(=O)[C@H](CC(=O)O)NC(=O)CNC(=O)[C@H](CCCNC(=N)N)NC2=O)C(=O)NCCCC[C@@H]2NC(=O)[C@@H](Cc3ccccc3)NC(=O)[C@H](CC(=O)O)NC(=O)CNC(=O)[C@H](CCCNC(=N)N)NC2=O)NC(=O)[C@@H](Cc2ccccc2)NC(=O)[C@H](CC(=O)O)NC(=O)CNC1=O` [indium-111 labelled] is reported as 3.16 ± 0.43 %ID/g (female athymic nu/nu mice, U87MG tumour; intravenous, 111 kBq, 72 h).
For `CC(C)C[C@@H](NC(=O)[C@@H](CC(C)C)NC(=O)[C@@H](CC(=O)O)NC(=O)[C@@H](CC(C)C)NC(=O)[C@@H](CC(C)C)NC(=O)[C@@H](CC(C)C)NC(=O)[C@H](NC(=O)[C@@H](CC(=O)O)NC(=O)[C@H](NC(=O)[C@H]1CCCN1C(=O)[C@@H](Cc1ccccc1)NC(=O)[C@@H](CC(C)C)NC(=O)[C@@H](CC(C)C)NC(=O)[C@@H](CC(=O)O)NC(=O)[C@@H](CC(C)C)NC(=O)[C@@H](Cc1ccc(O)cc1)NC(=O)[C@@H](C)NC(=O)[C@@H](CCCNC(=N)N)NC(=O)[C@@H](Cc1c[nH]c2ccccc12)NC(=O)[C@H]1CCCN1C(=O)[C@@H](CC(N)=O)NC(=O)[C@@H](CCC(N)=O)NC(=O)[C@@H](CC(=O)O)NC(=O)[C@@H](CC(=O)O)NC(=O)[C@@H](CSC1CC(=O)N(CCNC(=O)CN2CCN(CC(=O)O)CCN(CC(=O)O)CC2)C1=O)NC(=O)[C@@H](C)N)[C@H](C)O)[C@H](C)O)C(=O)N[C@H](Cc1c[nH]c2ccccc12)C(=O)O` (stereo partly drawn) [fluorine-18 labelled], the tumour-to-muscle ratio was 4.7 ± 0.9 (male nude mice, LNCaP xenograft; intravenous, 4 h; relative to: tumour over muscle).
For `COc1ccc2cc([C@H](C)C(=O)N[C@H](Cc3ccccc3)C(=O)N[C@H](Cc3ccccc3)C(=O)N[C@H](Cc3ccc(O)cc3)C(=O)O)ccc2c1`, the nanofiber width was 7 ± 2 nm (TEM; hydrogel 0.8 wt%).
`CC(C)C[C@@H]1NC(=O)[C@H]([C@@H](C)O)NC(=O)[C@H](Cc2ccccc2)NC(=O)CNC(=O)[C@H](Cc2c[nH]c3ccccc23)NC(=O)[C@H](Cc2c[nH]cn2)NC(=O)[C@H](C)NC(=O)[C@@H](NC(=O)[C@H](CCCCNC(=O)CCCCCN2C(=CC=C3CCCC(C=CC4=[N+](CCCCS(=O)(=O)[O-])c5ccc(S(=O)(=O)O)cc5C4(C)C)=C3Oc3ccc(S(=O)(=O)O)cc3)C(C)(C)c3cc(S(=O)(=O)O)ccc32)NC(=O)CN2CCN(CC(=O)O)CCN(CC(=O)O)CCN(CC(=O)O)CC2)CCCCNC(=O)C[C@@H](C(N)=O)NC1=O` [gallium-68 labelled]: “molar extinction coefficient” 108000 ± 7920 M⁻¹ cm⁻¹ (sodium acetate; pH 4).
With `CCCC[C@H](NC(=O)COCCOCCNC(=O)CN1CCN(CC(=O)O)CCN(CC(=O)O)CC1)C(=O)N[C@H]1CC(=O)NCCCC[C@@H](C(N)=O)NC(=O)[C@H](Cc2c[nH]c3ccccc23)NC(=O)[C@H](CCCNC(=N)N)NC(=O)[C@@H](Cc2ccccc2)NC(=O)[C@H](Cc2c[nH]cn2)NC1=O` [copper-64 labelled] the tissue uptake was 0.24 ± 0.06 %ID/g (C57 mice, brain; intravenous, 0.37 MBq, 0.5 h).
For `CCCC[C@H](NC(=O)CNC(=O)CNC(=O)CN1CCN(CC(=O)O)CCN(CC(=O)O)CCN(CC(=O)O)CC1)C(=O)N[C@H]1CC(=O)NCCCC[C@@H](C(N)=O)NC(=O)[C@H](Cc2c[nH]c3ccccc23)NC(=O)[C@H](CCCNC(=N)N)NC(=O)[C@@H](Cc2ccccc2)NC(=O)[C@H](Cc2c[nH]cn2)NC1=O` [lutetium-177 labelled], the tissue uptake was 0.53 ± 0.08 %ID/g (C57 mouse, female, liver; intravenous, 0.037 MBq, 24 h).
`N=C(N)NCCC[C@@H]1NC(=O)[C@H](CCCCNC(=O)CNC(=O)CNC(=O)CNC(=O)CC[C@H](NC(=O)CNC(=O)CNC(=O)CNC(=O)CN2CCN(CC(=O)O)CCN(CC(=O)O)CCN(CC(=O)O)CC2)C(=O)NCC(=O)NCC(=O)NCC(=O)NCCCC[C@@H]2NC(=O)[C@@H](Cc3ccccc3)NC(=O)[C@H](CC(=O)O)NC(=O)CNC(=O)[C@H](CCCNC(=N)N)NC2=O)NC(=O)[C@@H](Cc2ccccc2)NC(=O)[C@H](CC(=O)O)NC(=O)CNC1=O` [indium-111 labelled] gave a tissue uptake of 0.87 ± 0.13 %ID/g (female athymic nu/nu mice, blood; intravenous, 0.5 h).
For `C[C@H](NC(=O)CNC(=O)[C@H](CCC(=O)O)NC(=O)[C@H](CCC(=O)O)NC(=O)[C@H](CC(=O)O)NC(=O)[C@@H]1CCCN1C(=O)[C@H](Cc1ccccc1)NC(=O)[C@H](CS)NC(=O)[C@H](Cc1ccc(O)cc1)NC(=O)CCCNC(=O)CNC(=O)CNC(=O)[C@@H](C)NC(=O)CN)C(=O)N[C@@H](CS)C(=O)N[C@@H](Cc1ccc(O)cc1)C(N)=O` [technetium-99m labelled], the radiochemical purity was 93.3 ± 1.08% (paper chromatography; sealed vial; 4 h, room temperature).
`Cc1cc(-c2ccc(NC(=O)[C@H](CCCCNC(=O)CCN3C(=O)CC(SCCC(=O)N[C@H](Cc4ccccc4)C(=O)N[C@H]4CSSC[C@@H](C(=O)N[C@H](C(=O)O)[C@@H](C)O)NC(=O)[C@H]([C@@H](C)O)NC(=O)[C@H](CCCCN)NC(=O)[C@@H](Cc5c[nH]c6ccccc56)NC(=O)[C@H](Cc5ccc(O)cc5)NC4=O)C3=O)NC(=O)CN3CCN(CC(=O)O)CCN(CC(=O)O)CCN(CC(=O)O)CC3)c(C)c2)ccc1N=Nc1ccc2c(S(=O)(=O)O)cc(S(=O)(=O)O)c(N)c2c1O` (stereo partly drawn) [gallium-68 labelled]: radiochemical purity “decreased” (radio-HPLC; glutathione solution and urine; 2 h).
With `N=C(N)NCCC[C@@H]1NC(=O)[C@H](CCCCNC(=O)CNC(=O)CNC(=O)CNC(=O)CC[C@H](NC(=O)CNC(=O)CNC(=O)CNC(=O)CC[C@H](NC(=O)CN2CCN(CC(=O)O)CCN(CC(=O)O)CCN(CC(=O)O)CC2)C(=O)NCC(=O)NCC(=O)NCC(=O)N[C@@H](CCC(=O)NCC(=O)NCC(=O)NCC(=O)NCCCC[C@@H]2NC(=O)[C@@H](Cc3ccccc3)NC(=O)[C@H](CC(=O)O)NC(=O)CNC(=O)[C@H](CCCNC(=N)N)NC2=O)C(=O)NCC(=O)NCC(=O)NCC(=O)NCCCC[C@@H]2NC(=O)[C@@H](Cc3ccccc3)NC(=O)[C@H](CC(=O)O)NC(=O)CNC(=O)[C@H](CCCNC(=N)N)NC2=O)C(=O)NCC(=O)NCC(=O)NCC(=O)NCCCC[C@@H]2NC(=O)[C@@H](Cc3ccccc3)NC(=O)[C@H](CC(=O)O)NC(=O)CNC(=O)[C@H](CCCNC(=N)N)NC2=O)NC(=O)[C@@H](Cc2ccccc2)NC(=O)[C@H](CC(=O)O)NC(=O)CNC1=O` [indium-111 labelled] the tissue uptake was 1.96 ± 0.31 %ID/g (female athymic nu/nu mice, spleen; intravenous, 111 kBq, 24 h).
`CCCC[C@H](NC(=O)CCCCCCCNC(=O)CN1CCN(CC(=O)O)CCN(CC(=O)O)CC1)C(=O)N[C@H]1CC(=O)NCCCC[C@@H](C(N)=O)NC(=O)[C@H](Cc2c[nH]c3ccccc23)NC(=O)[C@H](CCCNC(=N)N)NC(=O)[C@@H](Cc2ccccc2)NC(=O)[C@H](Cc2c[nH]cn2)NC1=O` [copper-64 labelled] gave a tissue uptake of 0.08 ± 0.1 %ID/g (C57 mice, bone; intravenous, 0.37 MBq, 4 h).
`Cc1cc(-c2ccc(NC(=O)[C@H](CCCCNC(=O)CCOCCOCCC(=O)N[C@H](Cc3ccccc3)C(=O)N[C@H]3CSSC[C@@H](C(=O)N[C@H](C(=O)O)[C@@H](C)O)NC(=O)[C@H]([C@@H](C)O)NC(=O)[C@H](CCCCN)NC(=O)[C@@H](Cc4c[nH]c5ccccc45)NC(=O)[C@H](Cc4ccc(O)cc4)NC3=O)NC(=O)CN3CCN(CC(=O)O)CCN(CC(=O)O)CCN(CC(=O)O)CC3)c(C)c2)ccc1N=Nc1ccc2c(S(=O)(=O)O)cc(S(=O)(=O)O)c(N)c2c1O` [lutetium-177 labelled]: “grade 2 asthenia incidence” 8% (human metastatic neuroendocrine tumour; dose not given).

Some of these lines once more:
For `C[C@H](NC(=O)CNC(=O)[C@H](CCC(=O)O)NC(=O)[C@H](CCC(=O)O)NC(=O)[C@H](CC(=O)O)NC(=O)[C@@H]1CCCN1C(=O)[C@H](Cc1ccccc1)NC(=O)[C@H](CS)NC(=O)[C@H](Cc1ccc(O)cc1)NC(=O)CCCNC(=O)CNC(=O)CNC(=O)[C@@H](C)NC(=O)CN)C(=O)N[C@@H](CS)C(=O)N[C@@H](Cc1ccc(O)cc1)C(N)=O` [technetium-99m labelled], the radiochemical purity was 93.3 ± 1.08% (paper chromatography; sealed vial; 4 h, room temperature).
`N=C(N)NCCC[C@@H]1NC(=O)[C@H](CCCCNC(=O)CNC(=O)CNC(=O)CNC(=O)CC[C@H](NC(=O)CNC(=O)CNC(=O)CNC(=O)CN2CCN(CC(=O)O)CCN(CC(=O)O)CCN(CC(=O)O)CC2)C(=O)NCC(=O)NCC(=O)NCC(=O)NCCCC[C@@H]2NC(=O)[C@@H](Cc3ccccc3)NC(=O)[C@H](CC(=O)O)NC(=O)CNC(=O)[C@H](CCCNC(=N)N)NC2=O)NC(=O)[C@@H](Cc2ccccc2)NC(=O)[C@H](CC(=O)O)NC(=O)CNC1=O` [indium-111 labelled] gave a tissue uptake of 0.87 ± 0.13 %ID/g (female athymic nu/nu mice, blood; intravenous, 0.5 h).
